Measurements collected from several papers.
Parts stem from different laboratories: compare values within a part only.
Chain of UniProt P11802 (whole entry, looked up): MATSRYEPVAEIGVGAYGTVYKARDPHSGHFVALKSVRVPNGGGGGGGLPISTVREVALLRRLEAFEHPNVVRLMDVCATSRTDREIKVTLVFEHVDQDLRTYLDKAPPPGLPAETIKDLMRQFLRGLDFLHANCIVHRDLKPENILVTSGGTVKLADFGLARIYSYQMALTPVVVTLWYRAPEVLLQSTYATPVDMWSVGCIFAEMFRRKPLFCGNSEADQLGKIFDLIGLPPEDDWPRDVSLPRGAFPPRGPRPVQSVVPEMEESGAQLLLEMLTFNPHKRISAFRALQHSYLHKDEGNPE
Chain of UniProt Q8NG66 (whole entry, looked up): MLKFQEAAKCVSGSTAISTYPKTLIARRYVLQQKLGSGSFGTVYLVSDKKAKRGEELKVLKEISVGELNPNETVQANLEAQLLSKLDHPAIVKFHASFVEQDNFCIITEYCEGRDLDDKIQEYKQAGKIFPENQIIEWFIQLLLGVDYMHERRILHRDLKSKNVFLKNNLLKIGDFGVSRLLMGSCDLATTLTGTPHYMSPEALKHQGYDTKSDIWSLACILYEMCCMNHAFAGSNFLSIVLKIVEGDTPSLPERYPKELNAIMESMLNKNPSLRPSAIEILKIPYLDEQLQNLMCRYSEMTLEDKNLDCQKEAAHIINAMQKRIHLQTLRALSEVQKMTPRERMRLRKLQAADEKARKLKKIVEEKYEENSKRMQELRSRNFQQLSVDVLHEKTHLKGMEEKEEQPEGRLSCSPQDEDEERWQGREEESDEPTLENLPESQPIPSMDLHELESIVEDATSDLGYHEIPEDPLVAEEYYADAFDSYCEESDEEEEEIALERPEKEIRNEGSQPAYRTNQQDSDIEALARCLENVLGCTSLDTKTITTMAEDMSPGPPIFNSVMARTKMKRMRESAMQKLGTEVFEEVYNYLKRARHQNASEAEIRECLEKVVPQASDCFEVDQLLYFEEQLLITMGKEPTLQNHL
Chain of UniProt Q9Y2K2 (whole entry, looked up): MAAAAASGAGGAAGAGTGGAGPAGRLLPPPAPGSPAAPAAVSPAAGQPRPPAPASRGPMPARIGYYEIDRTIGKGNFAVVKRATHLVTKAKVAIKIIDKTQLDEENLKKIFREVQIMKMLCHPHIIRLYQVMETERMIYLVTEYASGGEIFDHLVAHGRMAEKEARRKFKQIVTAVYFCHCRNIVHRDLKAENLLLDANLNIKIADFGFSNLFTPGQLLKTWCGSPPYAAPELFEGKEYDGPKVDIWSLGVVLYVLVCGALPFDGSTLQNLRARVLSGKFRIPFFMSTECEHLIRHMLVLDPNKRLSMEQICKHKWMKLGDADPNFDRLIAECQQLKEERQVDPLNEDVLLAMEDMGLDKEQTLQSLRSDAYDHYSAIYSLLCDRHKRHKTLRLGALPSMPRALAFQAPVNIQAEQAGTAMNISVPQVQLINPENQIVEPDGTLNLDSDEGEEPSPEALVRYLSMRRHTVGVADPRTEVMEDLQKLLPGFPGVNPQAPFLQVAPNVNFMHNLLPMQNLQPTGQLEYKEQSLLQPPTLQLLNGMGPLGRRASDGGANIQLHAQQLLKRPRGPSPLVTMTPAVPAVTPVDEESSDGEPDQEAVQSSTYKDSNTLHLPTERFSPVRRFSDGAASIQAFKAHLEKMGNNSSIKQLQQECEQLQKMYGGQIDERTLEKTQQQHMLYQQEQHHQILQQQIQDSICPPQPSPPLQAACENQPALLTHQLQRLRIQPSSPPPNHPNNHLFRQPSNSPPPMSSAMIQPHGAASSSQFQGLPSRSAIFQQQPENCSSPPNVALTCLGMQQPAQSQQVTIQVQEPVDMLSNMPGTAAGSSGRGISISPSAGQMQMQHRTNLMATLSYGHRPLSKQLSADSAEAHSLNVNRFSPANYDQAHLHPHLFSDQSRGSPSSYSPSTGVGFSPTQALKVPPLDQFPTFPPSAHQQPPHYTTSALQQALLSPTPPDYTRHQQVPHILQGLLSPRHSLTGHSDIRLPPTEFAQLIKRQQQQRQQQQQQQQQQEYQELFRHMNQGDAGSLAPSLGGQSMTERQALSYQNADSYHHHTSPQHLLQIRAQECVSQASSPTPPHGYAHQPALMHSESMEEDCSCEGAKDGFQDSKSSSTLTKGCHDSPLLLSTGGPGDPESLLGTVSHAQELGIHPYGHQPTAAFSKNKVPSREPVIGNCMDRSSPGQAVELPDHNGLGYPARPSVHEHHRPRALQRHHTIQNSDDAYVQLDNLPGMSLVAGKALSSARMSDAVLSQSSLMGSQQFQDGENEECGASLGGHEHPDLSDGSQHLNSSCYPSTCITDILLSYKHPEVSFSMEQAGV
Chain of UniProt Q5VT25 (whole entry, looked up): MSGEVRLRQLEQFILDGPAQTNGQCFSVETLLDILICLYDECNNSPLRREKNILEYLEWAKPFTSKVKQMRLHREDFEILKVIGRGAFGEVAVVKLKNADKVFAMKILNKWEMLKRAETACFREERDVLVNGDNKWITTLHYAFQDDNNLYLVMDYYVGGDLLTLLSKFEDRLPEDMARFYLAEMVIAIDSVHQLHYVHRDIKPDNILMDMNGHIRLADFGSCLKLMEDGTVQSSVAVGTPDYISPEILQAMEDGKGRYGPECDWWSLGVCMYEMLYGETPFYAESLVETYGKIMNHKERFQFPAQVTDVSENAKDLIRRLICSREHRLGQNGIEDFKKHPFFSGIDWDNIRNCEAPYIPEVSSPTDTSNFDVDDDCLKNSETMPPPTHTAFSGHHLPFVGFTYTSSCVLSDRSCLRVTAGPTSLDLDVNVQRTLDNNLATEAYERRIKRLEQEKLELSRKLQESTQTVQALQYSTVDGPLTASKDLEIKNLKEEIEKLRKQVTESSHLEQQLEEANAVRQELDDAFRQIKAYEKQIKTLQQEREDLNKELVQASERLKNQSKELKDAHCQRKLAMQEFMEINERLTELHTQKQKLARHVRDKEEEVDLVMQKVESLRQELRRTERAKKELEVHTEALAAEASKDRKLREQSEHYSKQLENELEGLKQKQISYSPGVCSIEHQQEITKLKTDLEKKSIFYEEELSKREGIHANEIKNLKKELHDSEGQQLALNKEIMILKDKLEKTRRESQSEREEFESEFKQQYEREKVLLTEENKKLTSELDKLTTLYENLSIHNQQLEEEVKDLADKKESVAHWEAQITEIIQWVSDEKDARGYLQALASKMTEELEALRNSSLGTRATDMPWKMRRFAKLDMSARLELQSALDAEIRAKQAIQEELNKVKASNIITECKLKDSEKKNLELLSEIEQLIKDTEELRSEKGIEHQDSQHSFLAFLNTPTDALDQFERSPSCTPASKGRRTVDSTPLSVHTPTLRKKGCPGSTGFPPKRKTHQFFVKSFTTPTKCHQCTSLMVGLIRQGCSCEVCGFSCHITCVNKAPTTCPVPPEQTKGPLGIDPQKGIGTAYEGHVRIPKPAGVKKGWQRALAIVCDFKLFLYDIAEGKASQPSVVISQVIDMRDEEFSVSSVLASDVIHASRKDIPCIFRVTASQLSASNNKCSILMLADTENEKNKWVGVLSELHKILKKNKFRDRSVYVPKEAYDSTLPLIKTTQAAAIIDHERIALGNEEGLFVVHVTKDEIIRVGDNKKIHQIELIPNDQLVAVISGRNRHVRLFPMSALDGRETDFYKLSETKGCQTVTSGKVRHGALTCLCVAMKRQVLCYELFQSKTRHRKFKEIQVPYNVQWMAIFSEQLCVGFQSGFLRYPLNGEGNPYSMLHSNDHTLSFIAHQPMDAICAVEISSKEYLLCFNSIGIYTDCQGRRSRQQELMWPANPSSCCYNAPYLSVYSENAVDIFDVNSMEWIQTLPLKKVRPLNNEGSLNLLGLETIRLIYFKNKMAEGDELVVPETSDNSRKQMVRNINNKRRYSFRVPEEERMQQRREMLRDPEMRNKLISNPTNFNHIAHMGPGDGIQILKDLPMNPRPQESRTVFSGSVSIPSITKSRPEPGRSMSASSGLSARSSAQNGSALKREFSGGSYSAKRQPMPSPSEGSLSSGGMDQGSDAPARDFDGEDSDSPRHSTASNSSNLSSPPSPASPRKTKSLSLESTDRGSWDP
Chain of UniProt P54762 (whole entry, looked up): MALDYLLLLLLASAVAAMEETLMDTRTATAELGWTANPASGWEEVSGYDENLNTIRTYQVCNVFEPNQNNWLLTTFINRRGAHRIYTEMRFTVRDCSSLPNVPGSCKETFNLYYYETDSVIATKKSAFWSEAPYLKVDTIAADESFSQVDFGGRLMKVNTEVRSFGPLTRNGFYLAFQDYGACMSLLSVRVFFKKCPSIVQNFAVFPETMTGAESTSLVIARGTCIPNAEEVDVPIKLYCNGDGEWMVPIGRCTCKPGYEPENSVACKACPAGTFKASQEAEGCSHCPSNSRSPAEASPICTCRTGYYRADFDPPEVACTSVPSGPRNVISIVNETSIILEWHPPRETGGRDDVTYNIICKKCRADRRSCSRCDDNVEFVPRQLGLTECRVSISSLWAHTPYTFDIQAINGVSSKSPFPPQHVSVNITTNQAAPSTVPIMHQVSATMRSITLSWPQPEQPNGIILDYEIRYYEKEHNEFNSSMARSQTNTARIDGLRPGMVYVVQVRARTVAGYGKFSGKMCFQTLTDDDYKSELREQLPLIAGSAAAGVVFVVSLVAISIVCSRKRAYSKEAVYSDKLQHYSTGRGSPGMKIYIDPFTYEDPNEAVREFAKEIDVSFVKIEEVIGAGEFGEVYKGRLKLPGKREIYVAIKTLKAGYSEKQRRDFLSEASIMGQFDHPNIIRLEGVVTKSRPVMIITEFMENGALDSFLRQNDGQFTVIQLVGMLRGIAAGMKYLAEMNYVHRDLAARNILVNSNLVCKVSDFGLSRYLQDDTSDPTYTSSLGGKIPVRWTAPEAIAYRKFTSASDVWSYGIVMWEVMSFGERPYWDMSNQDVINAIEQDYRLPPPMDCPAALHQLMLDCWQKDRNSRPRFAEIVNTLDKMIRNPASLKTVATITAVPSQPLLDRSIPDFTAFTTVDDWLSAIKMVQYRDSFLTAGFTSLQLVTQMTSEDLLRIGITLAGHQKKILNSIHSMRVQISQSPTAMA

Set 1 — Molecule: NPM1 (Homo sapiens, UniProt P06748); technique: cross-linking MS; medium: cell fractions
For KRT4 (Homo sapiens, UniProt P19013); added: DSSO: cross-linked residues read “K250 to K214”.
It gave “E282 to E930” for cross-linked residues (FAM184B (Homo sapiens, UniProt Q9ULE4); added: DHSO).
For VIM (Homo sapiens, UniProt P08670); added: DSSO: cross-linked residues read “K141 to K120”.
DPY19L3 (Homo sapiens, UniProt Q6ZPD9); added: DSSO — cross-linked residues: “S254 to T106”.

Set 2 — technique: competition with immobilised ligand; tested at: 0.1 µM
Compound: C[C@H](c1ccnc(Nc2nc3ccc(-c4cc(N(C)C)ncn4)cc3[nH]2)c1)N1CCN(C(=O)CC(F)(F)F)CC1
It gave 100% for remaining binding (Ribosomal protein S6 kinase alpha-4, N-terminal kinase domain (RPS6KA4, Homo sapiens, UniProt O75676); cell-free assay).
For Cyclin-dependent kinase 13 (CDK13, Homo sapiens, UniProt Q14004); cell-free assay: remaining binding read 100%.
It gave 98% for remaining binding (Dual specificity tyrosine-phosphorylation-regulated kinase 1A (DYRK1A, Homo sapiens, UniProt Q13627); cell-free assay).
It gave 98% for remaining binding (Ephrin type-B receptor 1 (EPHB1, Homo sapiens, UniProt P54762); cell-free assay).
It gave 100% for remaining binding (Serine/threonine-protein kinase TAO2 (TAOK2, Homo sapiens, UniProt Q9UL54); cell-free assay).
The remaining binding was 99% (Serine/threonine-protein kinase MRCK alpha (CDC42BPA, Homo sapiens, UniProt Q5VT25); cell-free assay).
It gave 100% for remaining binding (Cyclin-dependent kinase 11B (CDK11B, Homo sapiens, UniProt P21127); cell-free assay).
For Mast/stem cell growth factor receptor Kit (KIT, Homo sapiens, UniProt P10721, V559D); cell-free assay: remaining binding read 99%.
It gave 82% for remaining binding (Platelet-derived growth factor receptor beta (PDGFRB, Homo sapiens, UniProt P09619); cell-free assay).
It gave 84% for remaining binding (Cyclin-dependent kinase 11A (CDK11A, Homo sapiens, UniProt Q9UQ88); binding).
The remaining binding was 100% (Cyclin-dependent kinase 4 (CDK4, Homo sapiens, UniProt P11802); cell-free assay).
The remaining binding was 100% (Transient receptor potential cation channel subfamily M member 6 (TRPM6, Homo sapiens, UniProt Q9BX84); cell-free assay).
It gave 96% for remaining binding (Serine/threonine-protein kinase Nek11 (NEK11, Homo sapiens, UniProt Q8NG66); cell-free assay).
It gave 93% for remaining binding (Ephrin type-B receptor 3 (EPHB3, Homo sapiens, UniProt P54753); cell-free assay).
For Serine/threonine-protein kinase SIK3 (SIK3, Homo sapiens, UniProt Q9Y2K2); cell-free assay: remaining binding read 100%.

Set 3 — technique: aptamer microarray, sandwich; form: DNA with 2'F-ANA; medium: in vitro; tested at: 200 nM; added: Cy3 exosite-II aptamer, 400 nM; direction: higher = stronger binding; strand: GGTTGGTGTGGTTGG
Target: Prothrombin, mature alpha-thrombin (F2, Homo sapiens, UniProt P00734)
Setting: whole 15-mer aptamer, many near background
Under “mean fluorescence intensity”, `2'F-ANA at 2 3 4 6 7 9 11 12 14` is recorded as 200 a.u.
For `2'F-ANA at 1 2 4 6 9 10 15`, “mean fluorescence intensity” read 49.5 a.u.
`2'F-ANA at 1 3 4 5 8 9 12`: “mean fluorescence intensity” 158 a.u.
For `2'F-ANA at 2 5 15`, “mean fluorescence intensity” read 69 a.u.
For `2'F-ANA at 2 4 5 8 9 10 11 12 13 14`, “mean fluorescence intensity” read 47 a.u.
`2'F-ANA at 1 7 8 9 10 12 15`: “mean fluorescence intensity” 72.4 a.u.
Under “mean fluorescence intensity”, `2'F-ANA at 6 7 11` is recorded as 462 a.u.
`2'F-ANA at 1 5 6 7 8 12 13 14` — result for “mean fluorescence intensity”: 71.1 a.u.

Mixed results — read-out: enzyme activity; action: inhibitor; tested at: 0.5 µM
With `Cc1cncc2cccc(S(=O)(=O)N3CCCN(C(=O)CN)C[C@@H]3C)c12` the remaining activity was 95% (Inhibitor of nuclear factor kappa-B kinase subunit epsilon (IKBKE, Homo sapiens, UniProt Q14164); baseline: control).
`COc1cc(Nc2c(C#N)cnc3cc(OCCCN4CCN(C)CC4)c(OC)cc23)c(Cl)cc1Cl` has a remaining activity of 99.8% (Protein kinase C beta type, isoform beta-I (PRKCB, Homo sapiens, UniProt P05771); baseline: control).
Under “activity vs control”, `O=C1c2ccccc2-c2n[nH]c3cccc1c23` is recorded as 25.2% (Casein kinase I isoform epsilon (CSNK1E, Homo sapiens, UniProt P49674)).

For quick reference, copied from above (set 2):
The remaining binding was 99% (Serine/threonine-protein kinase MRCK alpha (CDC42BPA, Homo sapiens, UniProt Q5VT25); cell-free assay).
It gave 100% for remaining binding (Cyclin-dependent kinase 11B (CDK11B, Homo sapiens, UniProt P21127); cell-free assay).
For Mast/stem cell growth factor receptor Kit (KIT, Homo sapiens, UniProt P10721, V559D); cell-free assay: remaining binding read 99%.
It gave 82% for remaining binding (Platelet-derived growth factor receptor beta (PDGFRB, Homo sapiens, UniProt P09619); cell-free assay).
It gave 84% for remaining binding (Cyclin-dependent kinase 11A (CDK11A, Homo sapiens, UniProt Q9UQ88); binding).
